Measurements from different studies.
Each numbered part is a random draw from the data of one study; scales do not carry over between parts.
UniProt Q9UPE1, sequence (whole entry, looked up): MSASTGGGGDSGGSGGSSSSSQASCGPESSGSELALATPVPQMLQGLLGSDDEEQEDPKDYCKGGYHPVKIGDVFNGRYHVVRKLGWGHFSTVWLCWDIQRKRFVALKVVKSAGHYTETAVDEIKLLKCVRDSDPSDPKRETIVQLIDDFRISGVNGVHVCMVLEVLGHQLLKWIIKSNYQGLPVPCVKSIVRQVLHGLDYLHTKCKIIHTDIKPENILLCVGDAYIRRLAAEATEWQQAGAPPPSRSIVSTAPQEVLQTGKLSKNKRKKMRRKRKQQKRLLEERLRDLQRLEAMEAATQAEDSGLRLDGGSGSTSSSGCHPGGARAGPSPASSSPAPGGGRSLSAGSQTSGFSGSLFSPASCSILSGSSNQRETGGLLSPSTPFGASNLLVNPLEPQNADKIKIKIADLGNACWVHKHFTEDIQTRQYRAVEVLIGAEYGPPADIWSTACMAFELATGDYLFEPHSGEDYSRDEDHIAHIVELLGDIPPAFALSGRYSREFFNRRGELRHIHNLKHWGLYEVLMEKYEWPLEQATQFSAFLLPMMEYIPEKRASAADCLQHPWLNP
UniProt Q9UQB9, sequence (whole entry, looked up): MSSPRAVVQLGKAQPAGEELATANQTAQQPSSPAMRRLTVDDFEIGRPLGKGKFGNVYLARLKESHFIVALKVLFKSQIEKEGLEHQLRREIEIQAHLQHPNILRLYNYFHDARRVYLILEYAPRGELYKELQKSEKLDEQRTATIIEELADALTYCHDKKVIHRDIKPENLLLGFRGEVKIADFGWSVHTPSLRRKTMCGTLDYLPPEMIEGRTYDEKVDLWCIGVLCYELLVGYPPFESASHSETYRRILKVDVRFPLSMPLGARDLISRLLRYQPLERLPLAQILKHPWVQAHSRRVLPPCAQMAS
UniProt Q9P1W9, sequence (whole entry, looked up): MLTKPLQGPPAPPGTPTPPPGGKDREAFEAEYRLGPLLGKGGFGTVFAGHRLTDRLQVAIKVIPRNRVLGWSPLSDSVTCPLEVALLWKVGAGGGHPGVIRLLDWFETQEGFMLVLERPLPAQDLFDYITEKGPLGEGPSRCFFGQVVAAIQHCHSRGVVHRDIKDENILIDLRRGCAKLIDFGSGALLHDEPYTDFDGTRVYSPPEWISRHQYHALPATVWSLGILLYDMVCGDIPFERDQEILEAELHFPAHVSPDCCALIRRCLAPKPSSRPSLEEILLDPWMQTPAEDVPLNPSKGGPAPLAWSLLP

Set 1
Target: DNA polymerase theta, ATPase domain (POLQ, Homo sapiens, UniProt O75417)
UniProt O75417, sequence (whole entry, unmodified, looked up): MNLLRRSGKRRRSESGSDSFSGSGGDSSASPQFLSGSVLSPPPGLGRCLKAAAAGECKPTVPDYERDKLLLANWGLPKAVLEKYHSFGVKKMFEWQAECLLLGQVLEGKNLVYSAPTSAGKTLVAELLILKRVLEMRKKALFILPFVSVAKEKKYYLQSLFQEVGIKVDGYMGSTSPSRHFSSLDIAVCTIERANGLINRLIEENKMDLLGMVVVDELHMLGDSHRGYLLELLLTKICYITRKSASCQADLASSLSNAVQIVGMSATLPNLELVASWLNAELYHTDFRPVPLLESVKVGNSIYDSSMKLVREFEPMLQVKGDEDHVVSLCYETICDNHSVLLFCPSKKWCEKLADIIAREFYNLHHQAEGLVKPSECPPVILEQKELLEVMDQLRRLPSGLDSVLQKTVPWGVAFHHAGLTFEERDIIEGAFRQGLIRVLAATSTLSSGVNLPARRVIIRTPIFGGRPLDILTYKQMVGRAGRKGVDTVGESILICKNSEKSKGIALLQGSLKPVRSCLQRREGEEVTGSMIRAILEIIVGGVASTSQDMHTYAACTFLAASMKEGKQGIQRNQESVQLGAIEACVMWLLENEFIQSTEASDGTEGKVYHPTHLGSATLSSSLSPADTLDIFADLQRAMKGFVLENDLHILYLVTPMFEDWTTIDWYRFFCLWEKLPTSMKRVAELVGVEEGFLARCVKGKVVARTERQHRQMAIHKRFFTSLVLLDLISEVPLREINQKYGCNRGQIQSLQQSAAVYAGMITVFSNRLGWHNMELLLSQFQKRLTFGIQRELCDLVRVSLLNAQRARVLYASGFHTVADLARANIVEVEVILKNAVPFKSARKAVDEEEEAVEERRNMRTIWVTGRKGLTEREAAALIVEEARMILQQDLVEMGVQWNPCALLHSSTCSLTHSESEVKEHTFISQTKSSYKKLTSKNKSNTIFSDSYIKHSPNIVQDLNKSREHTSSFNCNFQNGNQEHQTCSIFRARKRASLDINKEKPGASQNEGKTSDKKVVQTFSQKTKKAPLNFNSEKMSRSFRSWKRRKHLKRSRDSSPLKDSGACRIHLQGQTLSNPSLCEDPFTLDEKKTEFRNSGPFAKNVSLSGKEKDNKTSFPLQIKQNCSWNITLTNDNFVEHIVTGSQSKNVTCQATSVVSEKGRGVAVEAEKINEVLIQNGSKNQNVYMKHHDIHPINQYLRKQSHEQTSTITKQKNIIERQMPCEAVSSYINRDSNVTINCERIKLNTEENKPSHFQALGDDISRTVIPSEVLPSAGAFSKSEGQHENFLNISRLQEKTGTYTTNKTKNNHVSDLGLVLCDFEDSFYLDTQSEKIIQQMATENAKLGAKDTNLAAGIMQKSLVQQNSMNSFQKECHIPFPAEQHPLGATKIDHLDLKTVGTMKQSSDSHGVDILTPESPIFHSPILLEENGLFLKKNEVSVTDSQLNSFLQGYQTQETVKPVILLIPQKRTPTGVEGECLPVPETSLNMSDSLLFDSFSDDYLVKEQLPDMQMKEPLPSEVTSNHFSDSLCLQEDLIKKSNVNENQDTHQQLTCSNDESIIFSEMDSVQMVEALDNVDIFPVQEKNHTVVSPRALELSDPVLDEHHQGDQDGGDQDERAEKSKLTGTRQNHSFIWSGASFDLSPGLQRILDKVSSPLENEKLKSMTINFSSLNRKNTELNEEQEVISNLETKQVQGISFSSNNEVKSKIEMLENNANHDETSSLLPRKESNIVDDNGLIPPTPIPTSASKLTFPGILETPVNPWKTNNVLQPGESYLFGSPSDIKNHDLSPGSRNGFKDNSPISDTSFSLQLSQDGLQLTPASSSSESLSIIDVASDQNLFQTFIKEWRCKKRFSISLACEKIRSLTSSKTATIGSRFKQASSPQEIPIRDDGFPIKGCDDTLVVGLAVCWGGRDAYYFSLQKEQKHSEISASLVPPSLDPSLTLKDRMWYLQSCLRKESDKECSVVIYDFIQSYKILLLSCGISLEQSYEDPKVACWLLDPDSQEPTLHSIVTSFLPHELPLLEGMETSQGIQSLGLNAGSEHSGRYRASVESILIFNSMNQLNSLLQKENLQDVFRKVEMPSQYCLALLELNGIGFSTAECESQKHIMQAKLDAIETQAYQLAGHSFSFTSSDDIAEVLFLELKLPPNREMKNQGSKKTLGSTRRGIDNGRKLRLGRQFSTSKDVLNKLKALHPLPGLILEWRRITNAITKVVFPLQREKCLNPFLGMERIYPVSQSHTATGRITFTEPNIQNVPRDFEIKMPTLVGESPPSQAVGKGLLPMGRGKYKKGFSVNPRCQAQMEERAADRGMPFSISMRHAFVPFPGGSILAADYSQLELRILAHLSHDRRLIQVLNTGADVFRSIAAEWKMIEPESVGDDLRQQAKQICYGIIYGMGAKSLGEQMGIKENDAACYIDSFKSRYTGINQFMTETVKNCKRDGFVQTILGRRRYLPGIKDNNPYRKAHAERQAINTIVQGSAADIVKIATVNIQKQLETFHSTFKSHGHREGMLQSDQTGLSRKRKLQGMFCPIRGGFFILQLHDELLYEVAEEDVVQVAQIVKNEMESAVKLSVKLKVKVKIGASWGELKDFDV
Read-out: enzyme activity
Action: inhibitor
Tested at: 77 µM
Relative to: untreated
Structure (SMILES)	remaining activity [%]
CN1[C@@H]2CCC[C@H]1CC(=O)C2	100
NNC(=O)c1ccc(O)cc1	109
CO[C@H](C)[C@](O)(C(=O)OCC1=CCN2CC[C@H](O)[C@@H]12)C(C)C	102

Set 2
Target: Sodium-dependent serotonin transporter (SLC6A4, Homo sapiens, UniProt P31645)
UniProt P31645, sequence (whole entry, looked up): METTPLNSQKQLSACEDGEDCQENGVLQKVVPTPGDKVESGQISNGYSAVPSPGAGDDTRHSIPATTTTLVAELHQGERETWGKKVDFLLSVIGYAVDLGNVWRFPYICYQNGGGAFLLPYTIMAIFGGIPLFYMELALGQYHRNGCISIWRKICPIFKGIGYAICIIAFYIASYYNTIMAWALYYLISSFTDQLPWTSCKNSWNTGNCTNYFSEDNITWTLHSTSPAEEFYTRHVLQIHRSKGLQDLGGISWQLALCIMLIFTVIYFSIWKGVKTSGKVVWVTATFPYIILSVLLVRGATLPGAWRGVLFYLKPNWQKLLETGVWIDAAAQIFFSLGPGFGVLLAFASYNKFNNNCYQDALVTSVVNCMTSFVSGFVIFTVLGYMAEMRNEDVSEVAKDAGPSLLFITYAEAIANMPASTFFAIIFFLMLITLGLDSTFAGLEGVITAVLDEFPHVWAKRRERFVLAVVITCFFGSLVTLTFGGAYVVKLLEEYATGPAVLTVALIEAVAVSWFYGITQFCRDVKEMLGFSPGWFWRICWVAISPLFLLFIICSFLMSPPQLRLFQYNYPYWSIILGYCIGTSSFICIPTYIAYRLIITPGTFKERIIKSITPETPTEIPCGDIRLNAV
Read-out: binding
Method: radioligand binding
Tested at: 10 µM
Compound	inhibition [%]
O=C(Nc1cnc(Oc2ccc(F)cc2)nc1)N1CCc2ncccc2[C@@H]1c1ccc(F)cc1	25.5
CCCOc1ccc([C@H]2[C@H](C(=O)O)[C@@H](c3ccc4c(c3)OCO4)CN2CC(=O)Nc2c(CC)cccc2CC)cc1	10.6
CC1=C(C#N)[C@@H](c2ccc3[nH]nc(C)c3c2)C(C#N)=C(c2ccc(Cl)cc2)N1	-11.3
CNC(=O)c1cc(C(=O)NC2CC2)cn(Cc2ccccc2)c1=O	-15.9
O=C1CCc2cc(Nc3cc(OC4CCOCC4)c([N+](=O)[O-])cc3Cl)ccc2N1	23.5
CC(C)(O)c1cncc(-c2nc3ccc(F)cc3n2C2CC2)c1	-15.3
O=C1c2ccc(Nc3ccc(F)cc3F)cc2CCc2ccc(OC[C@H](O)CO)cc21	20.7
Cc1cc(-n2nc(Cc3cc(F)cc(C(F)(F)F)c3)nc2C)ccc1C(N)=O	-1.29
CC1=C(C#N)C(c2ccc3c(c2)c(NC(=O)c2ccccc2C)nn3C)C(C#N)=C(C)N1	-6.29
CN1C(=O)[C@@H](N2CCc3cn(Cc4ccccc4)nc3C2=O)COc2ccccc21	5.99
O=C([C@H]1C[C@H](O)CN1c1ccc(Cl)cc1)N1CC2COCC(C1)N2Cc1ccc(Cl)cc1	70.3
CC(=O)N1CCC(c2ccc(C(=O)NC(=N)N)cc2C(F)(F)F)CC1	21.4
COc1cccc(CNC(=O)c2nc3scc(COCc4ccc(C(=O)O)cc4)c3c(=O)[nH]2)c1	-3.64
O=C(NC[C@@H]1[C@H]2CN(C(=O)OCc3cc(C(F)(F)F)cc(C(F)(F)F)c3)C[C@@H]12)c1ccc2[nH]nnc2c1	-9.34
COCc1nc2cnc3cc(-c4c(C)noc4C)c(OC[C@H]4CCNC4)cc3c2n1[C@H](C)c1ccccc1	10.7
Cc1nccc(COC(=O)N2C[C@@H]3[C@@H](CNC(=O)c4ccc5[nH]nnc5c4)[C@@H]3C2)n1	-3.25
O=C(Nc1cccnn1)N1CCC(=Cc2cccc(Oc3ccc(C(F)(F)F)cn3)c2)CC1	20.2
CC(=O)Nc1c(F)cc(C(=O)N[C@H]2CC[C@H](O)CC2)cc1O[C@@H](C)c1ccccc1	-10.1
CC[C@H](CC(=O)O)n1c(=O)c2ncccc2n(Cc2cn(C)c3cc(C)cc(C)c23)c1=O	4.96
Cc1nc(Cc2cccc(C(F)(F)F)c2)sc1-c1ccc(C(N)=O)nc1	-7.18
c1ccc(C2CCN(c3cnc4c(N5CCOCC5)nccn34)CC2)cc1	3.12
CCOC(=O)c1cc2cc(-c3cc(C(=O)NCc4ccc(C(=O)O)cc4)nn3C)ccc2[nH]1	-0.14
C[C@H](NC(=O)c1cnc2n1[C@](C)(Cc1ccc(C#N)cc1)C(=O)N2c1cc(Cl)c(F)c(Cl)c1)C(=O)NC1(c2ccccn2)CC1	-4.33
CNC(=O)c1ccc(Nc2ncc(C(F)(F)F)c(NCc3nccnc3N(C)S(C)(=O)=O)n2)cc1	2.45
C[C@@]1(Cc2ccc(C#N)cc2)C(=O)N(c2cc(Cl)cc(Cl)c2)c2ncc(C(=O)NC3(c4nc(C5CCC5)no4)CC3)n21	5.35

Set 3
Cell line: HEK-293T-ACE2-TMPRSS2
Method: cell count
Tested at: 10 µM
SMILES	viability [%]
Cc1ccc(N2N=C(C(=O)NCc3ccccc3F)S(=O)(=O)c3cccnc32)cc1	83
CN1CCC(Cc2noc(COCc3ccccc3)n2)CC1	67
C=CCN(Cc1ccccc1OCC)C(=O)c1c(C)nc2ncccn12	66
CCCOC1CCCN(C(=O)CCNC(=O)c2ccc(F)cc2)C1 (stereo not drawn)	65
O=C(NCC1CCCN(Cc2nc(-c3ccccc3)cs2)C1)c1cccs1 (stereo not drawn)	102
CC1Oc2ccccc2OC1C(=O)Nc1nc(-c2ccc(N(C)S(C)(=O)=O)cc2)cs1 (stereo not drawn)	65
Fc1ccc(NC2=NCCCCC2)cc1	79
CC(C)c1ccc(C2C3=C(COC3=O)Nc3c2c(=O)n(C)c(=O)n3C)cc1 (stereo not drawn)	68
C=C(C#N)CN1CCN(CC(=C)C#N)CC1	70
O=S(=O)(O)c1cc(O)c2ccc3c(S(=O)(=O)O)cc(S(=O)(=O)O)c4ccc1c2c34	105
Cc1ccccc1CN1C[C@@H]2C[C@@H](c3cc4ccccc4o3)N3CCC[C@@]23C1=O	70
COc1nc2ccccc2cc1-c1cnccc1C	80
COc1ccc(N2CCN(C(=O)c3nc(S(C)(=O)=O)ncc3Cl)CC2)cc1	76
CC1=C(O)C(=O)C=C2C1=CC=C1[C@@]2(C)CC[C@@]2(C)[C@@H]3C[C@](C)(C(=O)O)CC[C@]3(C)CC[C@]12C	138
Cc1cc(-n2c(C)cc(C(=O)Cn3ncc(Cl)c(Cl)c3=O)c2C)no1	71
COc1cccc(F)c1-c1ccc2cc[nH]c(=O)c2c1	70
CNC(=O)CC1C(=O)NCCN1C(=O)c1cc2ccccc2n1C (stereo not drawn)	74
O=C(Cc1ccc2c(c1)OCCO2)Nc1ccc(-c2nccs2)cc1	109
CCOC(=O)c1nc(N2CCN(c3cccc(C(F)(F)F)c3)CC2)c2ccccc2n1	76
CC(Cc1c[nH]c2ccccc12)NC(=O)Cn1ccc2cc(Br)ccc21 (stereo not drawn)	102
CCC(CC)C(=O)N1C[C@@H](CO)[C@H](c2nc(COC)no2)C1	100

Set 4
SMILES: COc1ccc2c(c1)/C(=C/c1cnc[nH]1)C(=O)N2
Read-out: enzyme activity
Action: inhibitor
Tested at: 0.5 µM
Relative to: control
target	remaining activity [%]
NUAK1 (Homo sapiens, UniProt O60285)	8.87
Aurora kinase C (AURKC, Homo sapiens, UniProt Q9UQB9)	67.8
PRKCE (Homo sapiens, UniProt Q02156)	99
SRPK3 (Homo sapiens, UniProt Q9UPE1)	96.2
CSF1R (Homo sapiens, UniProt P07333)	88.7
BMX (Homo sapiens, UniProt P51813)	100
EPHB2 (Homo sapiens, UniProt P29323)	100
FGFR4 (Homo sapiens, UniProt P22455)	85.8
PRKCG (Homo sapiens, UniProt P05129)	95.2
CSK (Homo sapiens, UniProt P41240)	96.1
PAK2 (Homo sapiens, UniProt Q13177)	97.7
GSK3A (Homo sapiens, UniProt P49840)	26.2
PIM2 (Homo sapiens, UniProt Q9P1W9)	97.2
FLT3 (Homo sapiens, UniProt P36888)	9.29

For quick reference, copied from above (set 3):
SMILES	viability [%]
O=C(Cc1ccc2c(c1)OCCO2)Nc1ccc(-c2nccs2)cc1	109
C=C(C#N)CN1CCN(CC(=C)C#N)CC1	70
COc1nc2ccccc2cc1-c1cnccc1C	80
